Results gathered from unrelated publications.
Numbered parts are unrelated; each lists some results of a single study.
UniProt P51451, sequence (whole entry, looked up): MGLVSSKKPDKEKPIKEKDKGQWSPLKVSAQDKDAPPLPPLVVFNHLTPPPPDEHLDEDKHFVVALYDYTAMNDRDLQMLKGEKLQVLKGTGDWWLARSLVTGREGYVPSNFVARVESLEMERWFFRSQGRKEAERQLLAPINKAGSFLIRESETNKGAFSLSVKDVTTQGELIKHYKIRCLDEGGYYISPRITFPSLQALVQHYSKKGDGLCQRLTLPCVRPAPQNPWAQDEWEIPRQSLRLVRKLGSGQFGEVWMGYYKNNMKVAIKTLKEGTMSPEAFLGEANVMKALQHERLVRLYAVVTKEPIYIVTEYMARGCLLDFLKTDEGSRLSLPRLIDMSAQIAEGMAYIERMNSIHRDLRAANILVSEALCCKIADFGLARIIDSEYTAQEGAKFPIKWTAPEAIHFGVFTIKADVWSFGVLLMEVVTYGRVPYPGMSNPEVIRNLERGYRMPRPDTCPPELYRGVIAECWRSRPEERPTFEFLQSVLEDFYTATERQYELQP
UniProt Q9C5X0, sequence (whole entry, looked up): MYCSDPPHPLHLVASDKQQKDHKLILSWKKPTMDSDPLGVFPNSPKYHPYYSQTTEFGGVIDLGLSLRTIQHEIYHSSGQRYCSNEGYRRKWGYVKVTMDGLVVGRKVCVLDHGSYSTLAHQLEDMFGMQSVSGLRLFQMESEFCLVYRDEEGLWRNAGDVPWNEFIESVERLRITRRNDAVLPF
UniProt Q99640, sequence (whole entry, looked up): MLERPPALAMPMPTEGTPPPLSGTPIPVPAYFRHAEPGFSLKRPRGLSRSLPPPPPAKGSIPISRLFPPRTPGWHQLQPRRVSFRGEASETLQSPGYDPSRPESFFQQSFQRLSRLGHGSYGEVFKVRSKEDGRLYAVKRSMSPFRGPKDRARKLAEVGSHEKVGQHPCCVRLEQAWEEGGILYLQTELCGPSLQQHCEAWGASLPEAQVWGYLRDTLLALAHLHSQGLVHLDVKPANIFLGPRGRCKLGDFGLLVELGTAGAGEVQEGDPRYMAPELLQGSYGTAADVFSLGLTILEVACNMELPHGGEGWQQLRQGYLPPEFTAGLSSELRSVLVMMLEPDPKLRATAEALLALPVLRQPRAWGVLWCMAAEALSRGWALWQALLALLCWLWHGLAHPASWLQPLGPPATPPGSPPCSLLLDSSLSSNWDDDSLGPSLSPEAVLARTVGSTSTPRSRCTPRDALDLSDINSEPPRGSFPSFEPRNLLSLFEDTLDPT
UniProt P93022, sequence (whole entry, looked up): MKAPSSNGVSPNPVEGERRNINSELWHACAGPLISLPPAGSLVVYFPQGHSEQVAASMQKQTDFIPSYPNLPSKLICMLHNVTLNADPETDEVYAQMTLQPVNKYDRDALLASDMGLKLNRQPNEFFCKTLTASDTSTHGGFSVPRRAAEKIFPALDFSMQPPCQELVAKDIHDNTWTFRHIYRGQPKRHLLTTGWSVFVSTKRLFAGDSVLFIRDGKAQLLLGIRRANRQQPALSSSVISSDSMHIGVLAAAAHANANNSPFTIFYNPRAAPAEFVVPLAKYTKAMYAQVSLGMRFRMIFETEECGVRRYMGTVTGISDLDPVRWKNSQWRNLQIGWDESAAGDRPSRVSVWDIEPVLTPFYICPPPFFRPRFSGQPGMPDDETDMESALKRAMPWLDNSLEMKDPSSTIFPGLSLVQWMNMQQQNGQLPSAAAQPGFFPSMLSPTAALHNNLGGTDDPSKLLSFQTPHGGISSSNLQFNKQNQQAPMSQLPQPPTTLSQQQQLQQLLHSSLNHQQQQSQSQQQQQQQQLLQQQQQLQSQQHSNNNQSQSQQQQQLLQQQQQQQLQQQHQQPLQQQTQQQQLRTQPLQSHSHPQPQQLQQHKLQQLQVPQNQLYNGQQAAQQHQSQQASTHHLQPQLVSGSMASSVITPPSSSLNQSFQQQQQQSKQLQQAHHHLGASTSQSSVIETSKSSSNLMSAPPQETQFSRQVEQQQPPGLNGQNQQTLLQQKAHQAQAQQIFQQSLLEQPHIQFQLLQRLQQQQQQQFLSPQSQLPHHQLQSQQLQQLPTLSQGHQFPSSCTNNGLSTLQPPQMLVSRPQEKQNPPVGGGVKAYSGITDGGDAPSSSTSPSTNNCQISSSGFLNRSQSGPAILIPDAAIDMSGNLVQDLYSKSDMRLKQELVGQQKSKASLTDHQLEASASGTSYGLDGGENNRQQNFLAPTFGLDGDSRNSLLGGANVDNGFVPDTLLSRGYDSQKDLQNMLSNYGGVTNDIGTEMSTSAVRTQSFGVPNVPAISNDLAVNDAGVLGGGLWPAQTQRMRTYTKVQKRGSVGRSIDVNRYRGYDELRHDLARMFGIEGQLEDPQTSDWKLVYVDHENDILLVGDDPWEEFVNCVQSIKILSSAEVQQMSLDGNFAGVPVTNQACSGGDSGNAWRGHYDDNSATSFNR
UniProt Q9ZSY8, sequence (whole entry, looked up): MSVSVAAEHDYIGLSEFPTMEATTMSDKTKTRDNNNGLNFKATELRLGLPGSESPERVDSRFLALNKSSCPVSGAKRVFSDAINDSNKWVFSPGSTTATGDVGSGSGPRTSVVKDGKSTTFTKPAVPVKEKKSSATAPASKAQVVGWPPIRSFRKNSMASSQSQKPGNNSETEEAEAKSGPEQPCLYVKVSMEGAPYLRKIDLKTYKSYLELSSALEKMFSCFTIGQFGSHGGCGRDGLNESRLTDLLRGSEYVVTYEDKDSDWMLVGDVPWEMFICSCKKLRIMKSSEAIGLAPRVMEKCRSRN
UniProt P11802, sequence (whole entry, looked up): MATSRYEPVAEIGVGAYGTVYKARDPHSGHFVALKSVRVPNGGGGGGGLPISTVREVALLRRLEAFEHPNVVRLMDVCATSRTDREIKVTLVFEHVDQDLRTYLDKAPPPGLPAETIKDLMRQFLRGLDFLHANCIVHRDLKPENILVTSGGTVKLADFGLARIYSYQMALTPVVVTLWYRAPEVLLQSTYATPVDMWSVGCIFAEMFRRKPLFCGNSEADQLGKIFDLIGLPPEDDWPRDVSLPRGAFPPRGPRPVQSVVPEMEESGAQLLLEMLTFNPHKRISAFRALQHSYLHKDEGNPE
UniProt Q9ZPY6, sequence (whole entry, looked up): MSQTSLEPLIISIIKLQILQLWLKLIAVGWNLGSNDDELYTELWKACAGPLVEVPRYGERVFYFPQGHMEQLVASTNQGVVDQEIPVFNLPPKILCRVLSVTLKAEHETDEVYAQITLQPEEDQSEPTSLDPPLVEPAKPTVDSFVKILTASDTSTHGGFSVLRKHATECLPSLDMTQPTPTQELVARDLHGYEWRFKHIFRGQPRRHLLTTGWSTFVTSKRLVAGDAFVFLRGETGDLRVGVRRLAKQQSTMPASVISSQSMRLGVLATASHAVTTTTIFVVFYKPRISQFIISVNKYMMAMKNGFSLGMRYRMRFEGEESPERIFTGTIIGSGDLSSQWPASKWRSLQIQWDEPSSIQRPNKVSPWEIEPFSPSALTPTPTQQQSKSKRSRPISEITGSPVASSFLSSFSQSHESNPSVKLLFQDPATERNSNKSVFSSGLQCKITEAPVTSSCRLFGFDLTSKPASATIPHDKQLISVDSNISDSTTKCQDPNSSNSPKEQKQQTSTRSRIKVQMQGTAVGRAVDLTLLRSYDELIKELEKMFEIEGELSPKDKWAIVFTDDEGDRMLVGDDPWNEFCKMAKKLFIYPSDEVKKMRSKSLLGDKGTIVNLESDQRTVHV
UniProt Q9C8N7, sequence (whole entry, looked up): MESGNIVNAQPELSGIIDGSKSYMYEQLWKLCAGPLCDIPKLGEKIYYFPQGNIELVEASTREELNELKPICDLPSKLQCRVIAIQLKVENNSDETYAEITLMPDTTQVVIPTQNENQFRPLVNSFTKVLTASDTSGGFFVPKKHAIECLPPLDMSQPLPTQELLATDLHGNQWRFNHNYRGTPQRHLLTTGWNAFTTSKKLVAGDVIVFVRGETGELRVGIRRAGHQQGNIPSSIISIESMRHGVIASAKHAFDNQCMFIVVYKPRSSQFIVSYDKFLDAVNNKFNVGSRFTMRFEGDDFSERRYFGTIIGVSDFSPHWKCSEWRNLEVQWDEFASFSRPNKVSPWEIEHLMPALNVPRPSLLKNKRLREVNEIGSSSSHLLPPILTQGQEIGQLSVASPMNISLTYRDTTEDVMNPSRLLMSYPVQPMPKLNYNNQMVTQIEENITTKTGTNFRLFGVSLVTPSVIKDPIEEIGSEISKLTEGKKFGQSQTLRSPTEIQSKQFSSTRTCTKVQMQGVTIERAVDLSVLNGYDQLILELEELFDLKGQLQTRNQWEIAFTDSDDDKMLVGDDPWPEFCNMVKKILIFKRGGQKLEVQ
UniProt P48729, sequence (whole entry, looked up): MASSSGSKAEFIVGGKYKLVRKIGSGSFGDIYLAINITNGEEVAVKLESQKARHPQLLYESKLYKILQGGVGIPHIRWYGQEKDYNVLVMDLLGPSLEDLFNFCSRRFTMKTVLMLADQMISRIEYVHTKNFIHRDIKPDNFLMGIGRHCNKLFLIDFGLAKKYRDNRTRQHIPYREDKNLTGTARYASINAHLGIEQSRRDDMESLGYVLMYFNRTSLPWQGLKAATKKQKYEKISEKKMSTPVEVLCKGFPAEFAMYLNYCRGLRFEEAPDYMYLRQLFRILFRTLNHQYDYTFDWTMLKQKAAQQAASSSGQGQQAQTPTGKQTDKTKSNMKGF

Study 1 — read-out: enzyme activity; mode: inhibitor; tested at: 0.5 µM; relative to: control
Structure (SMILES): COc1ccc(S(=O)(=O)N(CCO)c2ccccc2CN(C)CC=Cc2ccc(Cl)cc2)cc1
target | remaining activity [%]
DYRK3 (Homo sapiens, UniProt O43781) | 113
RPS6KA6 (Homo sapiens, UniProt Q9UK32) | 102
TSSK2 (Homo sapiens, UniProt Q96PF2) | 107
MAPKAPK3 (Homo sapiens, UniProt Q16644) | 101
Cyclin-dependent kinase 4, with cyclin D3 (CDK4, Homo sapiens, UniProt P11802) | 94.1
RPS6KA5 (Homo sapiens, UniProt O75582) | 103
Cyclin-dependent kinase 1, with cyclin B (CDK1, Homo sapiens, UniProt P06493) | 105
WNK3 (Homo sapiens, UniProt Q9BYP7) | 99.4
AXL (Homo sapiens, UniProt P30530) | 104
HIPK4 (Homo sapiens, UniProt Q8NE63) | 101
STK17A (Homo sapiens, UniProt Q9UEE5) | 102
BLK (Homo sapiens, UniProt P51451) | 103
STK16 (Homo sapiens, UniProt O75716) | 102
PHKG1 (Homo sapiens, UniProt Q16816) | 95.4

Study 2 — tested at: 1 µM
SMILES: O=C(NCc1ncc(C(F)(F)F)cc1Cl)c1ccc2c(c1)C1(CCS(=O)(=O)CC1)[C@H](C1CC1)N2S(=O)(=O)c1ccc(F)cc1
target | assay | remaining binding
CSNK1A1 (Homo sapiens, UniProt P48729) | cell-free assay, competition with immobilised ligand | 92%
PKMYT1 (Homo sapiens, UniProt Q99640) | cell-free assay, competition with immobilised ligand | 100%
FLT3 (Homo sapiens, UniProt P36888, N841I) | cell-free assay, competition with immobilised ligand | 58%
STK11 (Homo sapiens, UniProt Q15831) | cell-free assay, competition with immobilised ligand | 100%
LIM domain kinase 2 (LIMK2, Homo sapiens, UniProt P53671) | cell-free assay, competition with immobilised ligand | 100%
CAMK1D (Homo sapiens, UniProt Q8IU85) | cell-free assay, competition with immobilised ligand | 85%
RIOK3 (Homo sapiens, UniProt O14730) | cell-free assay, competition with immobilised ligand | 69%
CSNK1G1 (Homo sapiens, UniProt Q9HCP0) | cell-free assay, competition with immobilised ligand | 86%
CDC42BPG (Homo sapiens, UniProt Q6DT37) | competition binding | 100%

Study 3 — method: two-hybrid; direction: higher = firmer interaction
Substance: IAA26 (Arabidopsis thaliana, UniProt Q8LAL2)
UniProt Q8LAL2, sequence (whole entry, looked up): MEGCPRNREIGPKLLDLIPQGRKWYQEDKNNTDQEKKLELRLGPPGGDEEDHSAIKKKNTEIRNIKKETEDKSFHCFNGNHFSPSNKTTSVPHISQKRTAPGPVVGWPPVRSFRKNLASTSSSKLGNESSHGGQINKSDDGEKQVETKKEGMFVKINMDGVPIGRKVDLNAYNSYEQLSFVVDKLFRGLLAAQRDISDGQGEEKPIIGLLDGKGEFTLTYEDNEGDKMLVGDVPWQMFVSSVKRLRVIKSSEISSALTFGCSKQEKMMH
partner | scale | positive tests
IAA32 (Arabidopsis thaliana, UniProt Q8RYC6) | relative to: out of 4 tests | 1
IAA27 (Arabidopsis thaliana, UniProt Q9ZSY8) | relative to: out of 2 tests | 0
ARF5 788-902 (Arabidopsis thaliana, UniProt P93024) | relative to: out of 4 tests | 1
ARF7 1030-1164 (Arabidopsis thaliana, UniProt P93022) | relative to: out of 4 tests | 1
ARF8 699-811 (Arabidopsis thaliana, UniProt Q9FGV1) | relative to: out of 4 tests | 1
IAA34 (Arabidopsis thaliana, UniProt Q9C5X0) | relative to: out of 4 tests | 2
ARF11 500-622 (Arabidopsis thaliana, UniProt Q9ZPY6) | relative to: out of 4 tests | 0
ARF22 498-598 (Arabidopsis thaliana, UniProt Q9C8N7) | relative to: out of 2 tests | 1

Study 4 — method: RNAcompete; form: RNA; medium: in vitro; tested at: 20 nM; notes: 7-mer, probes averaged, single round; relative to: mean of 7-mers; direction: higher = stronger binding
Target: PABPC1L2, full length, GST fusion (mouse, UniProt A0ABA7IW68)
Construct (chain): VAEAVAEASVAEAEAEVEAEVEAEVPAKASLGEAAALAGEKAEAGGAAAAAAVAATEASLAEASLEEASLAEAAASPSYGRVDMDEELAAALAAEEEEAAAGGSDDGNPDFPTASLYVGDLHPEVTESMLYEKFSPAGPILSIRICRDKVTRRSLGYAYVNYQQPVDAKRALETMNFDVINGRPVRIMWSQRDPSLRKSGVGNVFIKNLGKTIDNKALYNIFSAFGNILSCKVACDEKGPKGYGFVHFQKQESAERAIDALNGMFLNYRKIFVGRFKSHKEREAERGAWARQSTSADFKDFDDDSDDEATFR
Strand | 7-mer Z-score
CGGUGUU | -0.0989
GUUAUGC | -0.206
GAAACUG | 0.345
UACACCG | -0.13
AUGGCUG | 0.00436
UCGACUA | -0.302
GUAUUAG | -0.199
AGACGGU | -0.304

A few entries again (study 3):
partner | scale | positive tests
IAA27 (Arabidopsis thaliana, UniProt Q9ZSY8) | relative to: out of 2 tests | 0
ARF8 699-811 (Arabidopsis thaliana, UniProt Q9FGV1) | relative to: out of 4 tests | 1
ARF7 1030-1164 (Arabidopsis thaliana, UniProt P93022) | relative to: out of 4 tests | 1
IAA34 (Arabidopsis thaliana, UniProt Q9C5X0) | relative to: out of 4 tests | 2
ARF11 500-622 (Arabidopsis thaliana, UniProt Q9ZPY6) | relative to: out of 4 tests | 0
ARF22 498-598 (Arabidopsis thaliana, UniProt Q9C8N7) | relative to: out of 2 tests | 1
